# Experimental data of several laboratories.
# Parts stem from different laboratories: compare values within a part only.

# Block 1 — method: protein-binding microarray; molecule type: double-stranded DNA, one strand shown; medium: in vitro; tested at: 2540 nM top; notes: 60-bp whole probe; together with: salmon DNA 0.4 mg/ml; relative to: random background probes; reading: higher = stronger binding; all sequences stand within: GCCTAGCAC … GTCTTGATTCGCTTGACGCTGCTG
# Target: Interferon regulatory factor 3, full length, phosphomimetic (IRF3, Homo sapiens, UniProt Q14653, residues 1-427, S386D/S396D/S398D/S402D/T404D/S405D)
# Residues (chain): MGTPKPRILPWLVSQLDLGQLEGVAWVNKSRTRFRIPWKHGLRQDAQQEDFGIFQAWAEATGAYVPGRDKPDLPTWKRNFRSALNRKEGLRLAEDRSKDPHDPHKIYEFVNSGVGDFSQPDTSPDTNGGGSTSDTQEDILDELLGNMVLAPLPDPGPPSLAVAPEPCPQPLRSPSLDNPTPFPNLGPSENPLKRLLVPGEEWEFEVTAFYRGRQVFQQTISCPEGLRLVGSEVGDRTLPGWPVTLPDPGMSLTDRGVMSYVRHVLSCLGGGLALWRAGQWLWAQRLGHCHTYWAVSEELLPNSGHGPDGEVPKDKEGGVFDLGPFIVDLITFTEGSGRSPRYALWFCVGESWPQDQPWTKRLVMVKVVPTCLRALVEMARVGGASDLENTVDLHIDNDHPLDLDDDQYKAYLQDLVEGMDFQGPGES
Sequence,fitted relative affinity [z-score]
TTGGAACTGAGTTTCGATTAGTGCTAG,2.29
GTCGGACTGGGTCTCGGGACGTGCTAG,-0.349
GACGGTATCCTTTTGCTGACGTGCTAG,5.95
GACGGACTGGACTTTCGCGACGTGCTA,-0.439
GACCATTTCAGTTTCGAGACGTGCTAG,4.4
AACGAACTGGGGACTGGAGACGTGCTA,-0.588
TTTTTTTTTTTTTTTTTTACGTGCTAG,1.55
GACGATTTCGGGTTTCGAGATGTGCTA,2.88
GACCGTTTCCTACTGCTGACGTGCTAG,4.19
AGTTCTAAGGATTTCAGTTTGTGCTAG,0.752
TTAGGTTTCGGTCGCGGTTAGTGCTAG,4.53
GACGGGCTCCTTATCCTGACGTGCTAG,0.77
TTAGGTATCGGGACTGCGTTAGTGCTA,1.06
TTAGATATCAGTCTCGATTAGTGCTAG,1.37
GACGGTTTCGGGCTCGGGACGTGCTAG,3.67
GACGGACGGGACTATCGGGACGTGCTA,-0.467
TTAGGTATCGGGTTGCGGTTAGTGCTA,1.75
GACGACCTCAGTCTCGAGACGTGCTAG,-0.117
TTAGGTTCCCTTTGCCTTTAGTGCTAG,4.85
CTTTTTTTCAAGAAACAGTTCGTGCTA,2.81
GACGATATCAGACCGGAGACGTGCTAG,0.191
GACGGTAACGACTATCGGGACGTGCTA,-0.303
GAAGGTATCGACACTGGGGACGTGCTA,0.013
TCAAACATCCCAATGGCACTGTGCTAG,-0.00958
TCACTCCTCTCTCTTTCACTGTGCTAG,0.789

# Block 2 — method: RNA Bind-n-Seq; molecule type: RNA; medium: in vitro; tested at: 100 nM; relative to: input RNA pool; reading: higher = stronger binding
# Target: RING finger protein unkempt homolog, zinc fingers 1-6, SBP tag (UNK, Homo sapiens, UniProt Q9C0B0, residues 30-357)
# Sequence of UniProt Q9C0B0 (30-357, looked up): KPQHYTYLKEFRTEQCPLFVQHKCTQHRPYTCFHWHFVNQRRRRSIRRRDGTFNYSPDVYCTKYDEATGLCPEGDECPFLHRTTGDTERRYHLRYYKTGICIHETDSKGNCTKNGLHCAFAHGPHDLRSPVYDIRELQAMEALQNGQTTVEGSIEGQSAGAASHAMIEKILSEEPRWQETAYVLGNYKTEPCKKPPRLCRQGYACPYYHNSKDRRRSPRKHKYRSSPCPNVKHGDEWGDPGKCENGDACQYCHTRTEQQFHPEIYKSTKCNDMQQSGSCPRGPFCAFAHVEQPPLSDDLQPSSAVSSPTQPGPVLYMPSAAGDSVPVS
# Notes: RNA with constant flanks, vertebrate orthologous sites, ends assumed
Sequence,bound/input enrichment [ratio]
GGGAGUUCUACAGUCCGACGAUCGUGUUGGUGCAGAGCAUUCUGUACCACUGCUCAUCAUCCCUUCUUCAUACCACCUCUCUCUAGUUGUAGGAAUUUAAUAUUUUUAAAAGUUUUACAUUGCUGUAUAUUCAAAAUUGUUUACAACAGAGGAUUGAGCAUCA,1.5
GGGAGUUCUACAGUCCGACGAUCCAUCUCUCAUUUUAUAUGUCCAAAAUGGCCUUCGAUUUUUAAAUGGUUGCCAGUUGUAAUUAGCCCUGCCCUCAUGAAUUAUUGCCGUAGUUCACCACAGUAUCUGUUUGAAUUACUGCACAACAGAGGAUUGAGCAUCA,0.388
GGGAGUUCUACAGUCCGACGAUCGCCUCCAACAGGCAAAUUCAGGGAGAGAGAGGCUUCAGGGAAUAUAAAUUUAUUUAAUAGUAGUGAUCAUAAAGUAUAAAUUUGAUAUAAUUGAAUAAUUUGUGAGGGGUGAUGAUAAAUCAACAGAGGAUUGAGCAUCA,1.32
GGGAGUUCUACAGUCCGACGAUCGUUUUGGUACAAAGCUCUAUGUACCAAUGCUUAUCAUCCUUACAUCAUACCAACUGUUCCGAAGUGUAGGAGUUUAAUAUUUUUCAAAAGUUUUACAUUGCUGUAUAUUCAAAGAUUUCUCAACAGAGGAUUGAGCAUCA,0.59
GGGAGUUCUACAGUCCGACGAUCUGUAGUUUUUUUUUUUAUUUCAAGCAAAACUUUAUUGUACUUGAAUGCGUCCUGUUAGCACACCAUAGACUUGCUGUAAAUGUACUCAUGUCCCCAGUAUCUACGUUCUUUCUAUGAAAGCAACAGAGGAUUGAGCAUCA,1.61
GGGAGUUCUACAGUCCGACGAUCGUUUUGUUUUGUUGCACGUGACGGUUUGUAUUGAGGACCCUCUGAGGAAGAGGGGUGCUGUAGCAGUGGUCCCUGCGUGCCUGGCUCCAGUGUCCUGCCCUCCCCCCCCUCGCCAUGGCUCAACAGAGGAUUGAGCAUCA,0.779
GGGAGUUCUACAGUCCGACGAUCAAGCCAUCUUUUCCACAUUUUCUGUAAAUAAUGGAUAAUCAUUUUAAAAAAAUUUAUUUUUAGUGCUGUUUUAACAAUGUAGAUAGAUCAUAAAUGUACUUGCUGAAUUCAAUCAUUUUUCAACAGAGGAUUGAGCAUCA,0.688
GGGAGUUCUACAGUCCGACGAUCAUCCCUCAGUGACAGUAUGCCAUCUGUAGCAGAUUCCCACUCUAGUCAUUUUUCUGAAUUUAGUUGUUCUGACUUAGAAAGCAUGAAAACUUCUUGUAGUCAUGGUUCCAAUGAUUAUCACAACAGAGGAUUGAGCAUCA,1.77

# Block 3 — method: protein binding microarray; molecule type: double-stranded DNA, one strand shown; medium: in vitro; tested at: not given; relative to: not given; reading: higher = stronger binding
# Target: Histone acetyltransferase KAT6A, winged helix 2, GST fusion (KAT6A, Homo sapiens, UniProt Q92794, residues 85-181)
# Notes: 8-mer, flanks averaged, mean of 2 arrays, mostly near background
# Residues (chain): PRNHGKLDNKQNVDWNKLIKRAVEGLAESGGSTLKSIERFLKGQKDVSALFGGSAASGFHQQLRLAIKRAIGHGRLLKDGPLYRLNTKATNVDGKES
Sequence,E-score
AAATCTCT,-0.0705
ATTACGGA,-0.0137
CCTCGGCG,0.227
CAAGTTCC,-0.0971
GAGGTGGC,0.0375
CAATTCAG,-0.015
CGGCGTTC,0.0852
AGACTGAA,-0.0195
CGCCAGAC,0.12
ATAGCTGC,-0.0138
GCAACCCC,0.103
ATACACCC,-0.0307
ATCAAGAG,-0.0723
ATGCCGAA,0.023
TCCTTTAA,-0.0723
CGGTGTTC,0.0708
AGTCGATG,-0.0439
CTGGATAA,-0.032
AGTATCCC,-0.0596
ACTAGACC,-0.0806
GTCATTCA,-0.124
ACGTGACA,-0.218
AACTGCGT,0.0896
GTCCAGAC,-0.144
GCCAGTAA,-0.0877

# Block 4 — method: RNA Bind-n-Seq; molecule type: RNA; medium: in vitro; tested at: 200 nM; notes: whole 134-nt RNA, ends assumed; together with: 150 mM KCl; relative to: input library; reading: higher = stronger binding
# Target: Fragile X messenger ribonucleoprotein 1, C-terminal low-complexity region (Fmr1, Mus musculus, UniProt P35922)
Sequence,log2 enrichment
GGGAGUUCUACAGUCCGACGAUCGUCCUGUGCUACACAUCGUAUGUACCGAAUCGGGAAAGGGAAAAAAAGGGUUUUUGGGAAAGUAUUAUGUUACGCCGUUCGGAUCUGCACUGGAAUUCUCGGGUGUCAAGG,-0.372
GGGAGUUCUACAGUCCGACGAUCUGGAGCACAGGGCGAGCUCUCCUCCGCCCUGCAGCCUCAGGUAAGGAUCCGGACCUUCACUGCUGCCCCAACUGGGGCUCCUCAGCUCGGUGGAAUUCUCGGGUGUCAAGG,-0.188
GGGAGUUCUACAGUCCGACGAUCUCCUGUGCUACACAUCGUAUGUACCGAAUCGGUUUUUUGGUUUUUUGGGGUUUUUUGGGAAAGUAUUAUGUUACGCCGUUCGGAUCUGCAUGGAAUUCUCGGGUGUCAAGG,-0.161
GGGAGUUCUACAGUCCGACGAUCUGCAGCAGCGCCAGGAAUCGAGGAUGGUAAAAUGACCCAGGGGAAGAAGAAGAAACGGGCCGCGAACCGCAGUAUCAUGCUGGCCAAGAAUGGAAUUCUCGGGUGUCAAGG,0.121
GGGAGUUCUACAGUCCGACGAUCAAGUCCUGUGCUACACAUCGUAUGUACCGAAUCGGGGAGGGGUGGGGUUUUUGGGGAAAGUAUUAUGUUACGCCGUUCGGAUCUGCACUUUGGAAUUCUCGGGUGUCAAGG,0.867
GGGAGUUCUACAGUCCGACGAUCCAAGUCCUGUGCUACACAUCGUAUGUACCGAAUCGGUUUGGAAAAAAAGGAAAGGAAAGUAUUAUGUUACGCCGUUCGGAUCUGCACUUCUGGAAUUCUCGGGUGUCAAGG,-0.682
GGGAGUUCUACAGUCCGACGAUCACCAUCCAGGUGGGCAUCUUUGGGAAGUGGGGCAAGGGGGGGAUAGGGAGGGGGGUAACACUUUGGGAACAGGUGGUCCCAGGUCGUUUCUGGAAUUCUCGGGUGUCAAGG,0.941
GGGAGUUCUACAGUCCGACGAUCCUGUGCUACACAUCGUAUGUACCGAAUCGGGGUUUUUUUGGGUUUUUUUGGGUUUUUUUGGGAAAGUAUUAUGUUACGCCGUUCGGAUCUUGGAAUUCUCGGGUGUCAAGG,-0.233
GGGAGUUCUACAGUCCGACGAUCUGGGAGGUGGAUUUUGUUUAUUUUUUUAGCUCCUUUCCAGGGGUGGGAAUUUUUUUUUAAUAUGUGUCAUGAAUAAAGUUGUUUUUGAAAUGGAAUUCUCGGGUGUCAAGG,-0.0669
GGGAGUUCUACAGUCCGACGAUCGUCCUGUGCUACACAUCGUAUGUACCGAAUCGGGCCCCCGGGGCCCCCGGCCCCCGGGAAAGUAUUAUGUUACGCCGUUCGGAUCUGCACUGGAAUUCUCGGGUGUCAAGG,-0.665

# For quick reference, copied from above (block 1):
Sequence,fitted relative affinity [z-score]
GACGGACTGGACTTTCGCGACGTGCTA,-0.439
GACCATTTCAGTTTCGAGACGTGCTAG,4.4
AACGAACTGGGGACTGGAGACGTGCTA,-0.588
TTTTTTTTTTTTTTTTTTACGTGCTAG,1.55
GACGATTTCGGGTTTCGAGATGTGCTA,2.88
